Published values gathered from unrelated publications.
Every numbered part comes from another study and shows a few of its results, in no order. Substitutions count along the parent as printed.

Study 1
Target: Phosphate system positive regulatory protein PHO4, full length, GST-tagged (PHO4, Saccharomyces cerevisiae, UniProt P07270, residues 1-312)
Technique: competition protein-binding microarray
Molecule type: double-stranded DNA, one strand shown
Medium: in vitro
Tested at: 2 µM
Notes: whole 60-bp probe, lowest competitor level
Together with: Cbf1 competitor, 0.05 µM
Reading: higher = stronger binding
Constant ends, left off below: … GTCTTGATTCGCTTGACGCTGCTG
Residues (chain): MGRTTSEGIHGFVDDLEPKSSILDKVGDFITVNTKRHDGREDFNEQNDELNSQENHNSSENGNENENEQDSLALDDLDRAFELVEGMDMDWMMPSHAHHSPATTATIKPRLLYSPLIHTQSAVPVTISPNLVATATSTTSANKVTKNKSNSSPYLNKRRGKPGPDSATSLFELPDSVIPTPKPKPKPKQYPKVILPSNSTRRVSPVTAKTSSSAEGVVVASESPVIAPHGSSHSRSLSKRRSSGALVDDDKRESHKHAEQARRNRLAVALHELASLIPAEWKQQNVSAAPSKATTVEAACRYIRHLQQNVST
Oligonucleotide | fluorescence intensity [a.u.]
CCAGACCGTTTAGGCCATGTGCGGATTGTACTTGTT | 10500
AAATTACTAAGTTGTTGGGTGGGTGACGCCGTATGA | 4220
CTTCTGTAAATTTGTCACCAAACTTGACGCGCCCCG | 3520
AAAGCGGTAATTTGCGAGGTGGGTGCAGATATCTAT | 4240
CTTTCCCGATCTTTTCACGTGAGCTTAGCACATTTG | 11200
CTAACGAAGGTTTGTCACTGTACTTACAAGCCAAGT | 2990
CTTCTGTAAATTTTTCACGTGTCTTGACGCGCCCCG | 12700
CGTCCTAGTGATTGCGATGTGGGTGCCATGAGGAAG | 7520
GCACCAGGAAGTTGTCATGCTTGATGCTCGGCTCCC | 4480
CTAACGAAGGTTTGTCACTGCACTTACAAGCCAAGT | 3290
CTTCTGTAAATTTTGCACGTGTTTTGACGCGCCCCG | 17900
AAATTACTAAGTTGCTCTGTGGGTGACGCCGTATGA | 3540
AGAAGAGACGCAGCAAGCGTGGGTAAATGATAATGA | 7150
CTTCTGTAAATTTGCAATGTGGGTGGACGCGCCCCG | 5580
CGGGGTTAAGTTTGGAATGTGGGTGGCTTGCAGCAG | 5480
GTCTTGTCTCATTGTTGAGTGGGTGTCCCCACTTCA | 4940
CTTTCCCGATCTTGTCACCACACTTTAGCACATTTG | 5080
TGCTAAGACCATAGGCACATGTACGCAGGCGACCAG | 9460

Study 2
Target: Histone acetyltransferase KAT6A, both winged helices, GST fusion (KAT6A, Homo sapiens, UniProt Q92794, residues 1-181)
Technique: protein binding microarray
Molecule type: double-stranded DNA, one strand shown
Medium: in vitro
Tested at: not given
Notes: 8-mer, flanks averaged, mean of 2 arrays, mostly near background
Reference: not given
Reading: higher = stronger binding
Residues (chain): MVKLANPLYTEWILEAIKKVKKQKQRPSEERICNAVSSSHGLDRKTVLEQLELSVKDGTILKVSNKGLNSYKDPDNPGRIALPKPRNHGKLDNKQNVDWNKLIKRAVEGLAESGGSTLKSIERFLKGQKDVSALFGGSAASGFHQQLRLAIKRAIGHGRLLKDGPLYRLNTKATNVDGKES
Oligonucleotide | E-score
GCAGATTA | -0.086
AACAGGTC | -0.0982
AGACAACT | -0.259
AGAAGATG | -0.0739
AATGTCGG | 0.188
GACAGGGC | 0.0351
AAATAGTT | 0.0122
CTGCTTAC | -0.114
TGCAGGCA | -0.149
CCAATCCA | -0.215
CGGAATGC | 0.197
AATGATTG | -0.14
GCTACGAC | 0.127
ATCCTCTG | -0.24
ACCACCGG | 0.186
CACACCAA | 0.0849
CTGCAGCA | -0.132
AACTAAAA | -0.0818

Study 3
Target: UBE2S UBC core domain (UniProt Q16763)
Technique: yeast two-hybrid
Medium: yeast
Notes: mostly zero background
Reference: not given
Reading: higher = stronger interaction
B1: TRIM28 RING domain (UniProt Q13263); chain GAEALELLEHCGVCRERLRPEREPRLLPCLHSACSACLGPAAPAAANSSGDGGAAGDGTVVDCPVCKQQCFSKDIVE
B2: TRIM74 RING domain (UniProt Q86UV6); chain SLLELEDWLQCPICLEVFKESLMLQCGHSYCKGCLVSLSYHLDTKVRCPMCWQVVDGSSSLP
B3: RMND5B RING domain (UniProt Q96G75); chain MKCWYHSVFACPILRQQTSDSNPPIKLICGHVISRDALNKLINGGKLKCPYCPMEQNPADGK
B4: RNF17 RING domain (UniProt Q9BXT8); chain SQPWGAAEIQCTRCGRRVSRSSGHHCELQCGHAFCELCLLMTEECTTIICPDCEVATAVNTRQR
B5: UBE4B RING domain (UniProt O95155); chain KNARAEIDYSDAPDEFRDPLMDTLMTDPVRLPSGTIMDRSIILRHLLNSPTDPFNRQTLTESMLEPVPELKEQIQAWMREKQNSDH
B6: RNF11 RING domain (UniProt Q9Y3C5); chain RDGSEKKIRECVICMMDFVYGDPIRFLPCMHIYHLDCIDDWLMRSFTCPSCMEPVDAALLSS
B7: MDM2 RING domain (UniProt Q00987); chain TQDKEESVESSLPLNAIEPCVICQGRPKNGCIVHGKTGHLMACFTCAKKLKKRNKPCPVCRQPIQMIVLTYFP
B8: SHPRH RING domain (UniProt Q149N8); chain KTSGGVNPEPCPICARQLGKQWAVLTCGHCFCNECISIIIEQYSVGSHRSSIKCAICRQTTSHKEISY
B9: MARCHF2 RING domain (UniProt Q9P0N8); chain RLLSTVIRALDTPSDGPFCRICHEGANGECLLSPCGCTGTLGAVHKSCLEKWLSSSNTSYCELCHTEFAVEKRPRPLTEWL
Construct (chain): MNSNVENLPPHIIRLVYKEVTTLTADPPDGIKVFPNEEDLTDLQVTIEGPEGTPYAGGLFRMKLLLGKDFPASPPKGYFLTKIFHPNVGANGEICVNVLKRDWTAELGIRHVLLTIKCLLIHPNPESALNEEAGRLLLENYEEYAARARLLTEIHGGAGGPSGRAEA
Molecule | lacZ reporter activity
B1 (TRIM28 RING domain) | 0
B2 (TRIM74 RING domain) | 0
B3 (RMND5B RING domain) | 0
B4 (RNF17 RING domain) | 0
B5 (UBE4B RING domain) | 0
SNNDLASLFECPVCFDYVLPPILQCQSGHLVCSNCRPKLTCCPTCRGPLGSIRNLA (SIAH1 RING domain (UniProt Q8IUQ4)) | 0
KITELNPHLMCALCGGYFIDATTIVECLHSFCKTCIVRYLETNKYCPMCDVQVHKTRPLL (PCGF2 RING domain (UniProt P35227)) | 0
B6 (RNF11 RING domain) | 0
AAQLLEEKLTCAICLGLYQDPVTLPCGHNFCGACIRDWWDRCGKACPECREPFPDGAELR (TRIM65 RING domain (UniProt Q6PJ69)) | 0
EIKDYKARLTCPCCNMRKKDAVLTKCFHVFCFECVKTRYDTRQRKCPKCNAAFGANDFHR (RNF20 RING domain (UniProt Q5VTR2)) | 0
B7 (MDM2 RING domain) | 0
B8 (SHPRH RING domain) | 0
B9 (MARCHF2 RING domain) | 0

Study 4
Target: Interferon regulatory factor 7, full length, phosphomimetic (IRF7, Homo sapiens, UniProt Q92985, residues 1-503, S101K/S471D/S472D/S475D/S476D/S477D/S483D/S484D/S487D)
UniProt Q92985, sequence (whole entry, unmodified, looked up): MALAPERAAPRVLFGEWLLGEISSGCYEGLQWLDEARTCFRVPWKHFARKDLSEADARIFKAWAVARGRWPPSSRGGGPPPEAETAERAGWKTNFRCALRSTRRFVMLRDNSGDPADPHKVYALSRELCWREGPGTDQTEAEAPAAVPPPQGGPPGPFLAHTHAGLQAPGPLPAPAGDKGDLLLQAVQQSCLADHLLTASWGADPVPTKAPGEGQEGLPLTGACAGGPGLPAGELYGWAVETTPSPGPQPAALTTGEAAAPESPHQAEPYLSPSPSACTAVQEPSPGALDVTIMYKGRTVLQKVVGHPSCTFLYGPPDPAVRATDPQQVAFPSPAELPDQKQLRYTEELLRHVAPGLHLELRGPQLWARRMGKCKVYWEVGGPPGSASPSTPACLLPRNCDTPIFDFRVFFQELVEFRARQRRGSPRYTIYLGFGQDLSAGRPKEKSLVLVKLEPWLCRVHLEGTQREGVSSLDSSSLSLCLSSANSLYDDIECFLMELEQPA
Technique: protein-binding microarray
Molecule type: double-stranded DNA, one strand shown
Medium: in vitro
Tested at: 250 nM
Notes: 60-bp whole probe
Together with: salmon DNA 0.4 mg/ml
Reference: random background probes
Reading: higher = stronger binding
Constant ends, left off below: GCCTAGCAC … GTCTTGATTCGCTTGACGCTGCTG
Oligonucleotide | log fluorescence [z-score]
TTACGTTTCGGACTGGGTTAGTGCTAG | 1.84
GACGGTATCCTTCTCATGACGTGCTAG | 0.236
ATAGGACTGCTTCTCCTTTAGTGCTAG | 0.663
TCACTTCCCAATTGTCTTACTGTGCTA | 1.92
GACGGACTGGGTATCGGGCCGTGCTAG | -0.434
TCACTTTACTTTCTTTTACTGTGCTAG | 2.18
TCTCTTTTGGCTTTCCTTTAGTGCTAG | 1.36
TTAGGTTTCGGTTCAGGTTAGTGCTAG | 13.8
CTCCTAATAAATATGAGACTGTGCTAG | 0.54
GAGGGTCTCGGTATCGGGACGTGCTAG | 1.12
TCACATATTCTCTTCTTACTGTGCTAG | 0.973
TTAGGTCTCGGTAACGGTTAGTGCTAG | 0.634
TTAGGTTTCGACACTGGGCTAGTGCTA | 3.26
GACGGTATCGGGTCTGGGGACGTGCTA | 0.246
TTAGATTCCTGTTTCGATTAGTGCTAG | 6.48
GACGGTCTCCTAGTGCTGACGTGCTAG | -0.741
TTAGGTATCAGTATCGGTTAGTGCTAG | 1.29
TTAGATTTCGGTCTCGATTAGTGCTAG | 2.9
TCCTGTATGGATGTGTTTTAGTGCTAG | -0.11

Study 5
Target: ABI1, truncated, D143A, DHFR fusion (Arabidopsis thaliana)
Technique: DHFR PCA, deep sequencing
Medium: yeast
Notes: methotrexate growth selection, single substitutions
Together with: (+)-ABA 0.11 µM
Reference: wild-type fitted maximum
Reading: higher = stronger binding
Parent: PYL1, truncated, DHFR fusion (Arabidopsis thaliana); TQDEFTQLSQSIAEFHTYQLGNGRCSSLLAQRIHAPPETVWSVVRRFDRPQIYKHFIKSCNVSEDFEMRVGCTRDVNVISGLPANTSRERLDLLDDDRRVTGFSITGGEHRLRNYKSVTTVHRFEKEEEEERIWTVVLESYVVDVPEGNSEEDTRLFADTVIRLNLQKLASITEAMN
Substitution | relative binding score
V118D | -3.89%
I12G | -3.78%
R69D | -4.22%
F66A | 10.3%
E128V | 16.3%
F157H | 11.1%
A170N | 0.97%
N114H | 10.2%
E125M | 32.3%
Q167P | 6.01%
L138T | -3.08%
A84V | 29.2%
V118G | 1.02%
I79L | 6.58%
D48N | -0.869%
G107F | 0.319%
V78M | 63.5%
Q31V | 5.65%
S87A | 12.8%
I105D | -11.7%
L112G | -5.95%
E109Y | 4.54%
G21Q | 36.5%
Y115A | -1.74%
V100Y | -9.94%

Study 6
Target: CCND1, cyclin fold, Cln2 fusion (human)
Technique: yeast growth competition, sequencing
Medium: yeast
Notes: weak parent motif
Reference: not given
Reading: higher = stronger binding
Parent: BRCA2 docking peptide (human); CKKRRALDFLSRL; partner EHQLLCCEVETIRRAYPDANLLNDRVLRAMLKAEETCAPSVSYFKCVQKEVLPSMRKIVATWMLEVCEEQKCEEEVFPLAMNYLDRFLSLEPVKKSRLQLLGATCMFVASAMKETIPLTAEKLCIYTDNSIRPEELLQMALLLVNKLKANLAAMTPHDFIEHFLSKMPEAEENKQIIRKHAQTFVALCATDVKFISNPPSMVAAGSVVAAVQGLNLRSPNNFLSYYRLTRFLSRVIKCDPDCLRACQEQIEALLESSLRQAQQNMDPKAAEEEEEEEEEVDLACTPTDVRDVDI
Substitution | normalised enrichment score
CKKRRALDFLARL [S11A] | 0.923
CKKRKALDFLSRL [R5K] | 0.631
CAKRRALDFLSRL [K2A] | 0.618
CKKRRALDFLSRA [L13A] | 0.558
CKARRALDFLSRL [K3A] | 0.653
CKKRRALAFLSRL [D8A] | 0.404
AKKRRALDFLSRL [C1A] | 0.353
